{"data": "Results from different studies", "note": "Compare with care: the assays were run in different laboratories. ± gives the spread as reported."}
{"Structure (SMILES)": "COc1ccc(C)cc1NC(=O)OC1CC2CCCC(C1)N2Cc1ccc(CC[18F])cc1 (stereo not shown)", "test system": "BALB/c mice, EMT6 tumour, lung", "conditions": "1 h", "quantity": "tissue uptake", "value": "8.73 ± 2.54 %ID/g"}
{"Structure (SMILES)": "CCNc1cc2[o+]c3cc(NCC)c(C)cc3c(-c3ccccc3C(=O)OCCOCC[18F])c2cc1C", "test system": "rat, kidney", "conditions": "60 min", "quantity": "tissue uptake", "value": "7.9 ± 0.99 %ID/g"}
{"Structure (SMILES)": "CN(C)c1ccc(C(=O)NCCCCN2CCN(c3ccccc3O[11CH3])CC2)cc1", "test system": "male Sprague Dawley rat, kidney", "conditions": "iv, 30 min", "scale": "relative to: untreated", "quantity": "tissue uptake", "value": "1.96 %ID/g"}
{"Structure (SMILES)": "N=C(N)NCc1ccc(C(=O)NCCCC[C@H](NC(=O)N[C@@H](CCC(=O)O)C(=O)O)C(=O)O)cc1[131I]", "test system": "SCID mouse, PC-3 xenografts, blood", "conditions": "2 h", "quantity": "tissue uptake", "value": "0.37 ± 0.07 %ID/g"}
{"Structure (SMILES)": "C=Cc1cc(O)cc2nc(-c3ccc(O)c([76Br])c3)oc12", "test system": "female C57BL/6 mouse, muscle", "conditions": "3 h, high dose, with: estradiol 20 µg blocking", "quantity": "tissue uptake", "value": "0.04 ± 0.02 %ID/g"}
{"Structure (SMILES)": "N=C(N)NCc1ccc(C(=O)NCCCC[C@H](NC(=O)CCCCCCC(=O)NCCCC[C@H](NC(=O)N[C@@H](CCC(=O)O)C(=O)O)C(=O)O)C(=O)O)cc1[211At]", "test system": "SCID mouse, PC-3 xenografts, liver", "conditions": "2 h", "quantity": "tissue uptake", "value": "3.8 ± 2.39 %ID/g"}
{"Structure (SMILES)": "CN[C@](C)(C[18F])C(=O)O", "test system": "SCID mouse U87 xenograft, lung", "conditions": "15 min, post injection", "quantity": "tissue uptake", "value": "3.7 ± 0.4 %ID/g"}
{"Structure (SMILES)": "N=C(N)NCCC[C@@H]1NC(=O)[C@H](CCCCNC(=O)CNC(=O)CNC(=O)CNC(=O)CC[C@H](NC(=O)CCOCCOCCOCCOCCNC(=O)CC[C@H](NC(=O)CN2CCN(CC(=O)O)CCN(CC(=O)O)CCN(CC(=O)O)CC2)C(=O)NCCOCCOCCOCCOCCC(=O)N[C@@H](CCC(=O)NCC(=O)NCC(=O)NCC(=O)NCCCC[C@@H]2NC(=O)[C@@H](Cc3ccccc3)NC(=O)[C@H](CC(=O)O)NC(=O)CNC(=O)[C@H](CCCNC(=N)N)NC2=O)C(=O)NCC(=O)NCC(=O)NCC(=O)NCCCC[C@@H]2NC(=O)[C@@H](Cc3ccccc3)NC(=O)[C@H](CC(=O)O)NC(=O)CNC(=O)[C@H](CCCNC(=N)N)NC2=O)C(=O)NCC(=O)NCC(=O)NCC(=O)NCCCC[C@@H]2NC(=O)[C@@H](Cc3ccccc3)NC(=O)[C@H](CC(=O)O)NC(=O)CNC(=O)[C@H](CCCNC(=N)N)NC2=O)NC(=O)[C@@H](Cc2ccccc2)NC(=O)[C@H](CC(=O)O)NC(=O)CNC1=O [indium-111 labelled]", "test system": "female athymic nude mice, heart", "conditions": "intravenous, 3 µCi, 72 h, U-87 MG glioma xenograft", "quantity": "tissue uptake", "value": "0.13 ± 0.01 %ID/g"}
{"Structure (SMILES)": "CCCC[C@H](NC(=O)CNC(=O)CNC(=O)c1ccc(NN)nc1)C(=O)N[C@H]1CC(=O)NCCCC[C@@H](C(N)=O)NC(=O)[C@H](Cc2c[nH]c3ccccc23)NC(=O)[C@H](CCCNC(=N)N)NC(=O)[C@@H](Cc2ccccc2)NC(=O)[C@H](Cc2c[nH]cn2)NC1=O [technetium-99m labelled]", "test system": "C57 mouse, B16/F1 melanoma-bearing, skin", "conditions": "intravenous, 24 h", "quantity": "tissue uptake", "value": "0.13 ± 0.02 %ID/g"}
{"Structure (SMILES)": "N=C(N)NCc1ccc(C(=O)NCCCC[C@H](NC(=O)N[C@@H](CCC(=O)O)C(=O)O)C(=O)O)cc1[211At]", "test system": "SCID mouse, PC-3 xenografts, bone", "conditions": "4 h", "quantity": "tissue uptake", "value": "0.36 ± 0.17 %ID/g"}
{"Structure (SMILES)": "O=C(O)CC[C@H](NC(=O)O[C@@H](CCCCNC(=O)c1ccc([18F])cc1)C(=O)O)C(=O)O", "test system": "mouse, PC-3 PIP/flu xenografts, heart", "conditions": "30 min", "quantity": "tissue uptake", "value": "1.12 ± 0.74 %ID/g"}
{"Structure (SMILES)": "N=C(N)NCCC[C@@H]1NC(=O)[C@H](CCCCNC(=O)CCOCCOCCOCCOCCNC(=O)CN2CCN(CC(=O)O)CCN(CC(=O)O)CCN(CC(=O)O)CC2)NC(=O)[C@@H](Cc2ccccc2)NC(=O)[C@H](CC(=O)O)NC(=O)CNC1=O [indium-111 labelled]", "test system": "female athymic nude mouse", "conditions": "intravenous, 3 µCi, 24 h, U-87 MG glioma xenograft", "scale": "relative to: tumour over muscle", "quantity": "tumour to muscle ratio", "value": "7.9 ± 1.41"}
{"Structure (SMILES)": "CC[C@H](C)C(=O)N1CCC(NC(=O)Nc2ccc(OC(F)(F)F)c(F)c2)CC1", "test system": "human, plasma", "conditions": "oral, 8 mg, single dose, fed, healthy volunteers", "quantity": "Vd/F", "value": "164 L"}
{"note": "A few entries again:"}
{"Structure (SMILES)": "N=C(N)NCc1ccc(C(=O)NCCCC[C@H](NC(=O)CCCCCCC(=O)NCCCC[C@H](NC(=O)N[C@@H](CCC(=O)O)C(=O)O)C(=O)O)C(=O)O)cc1[211At]", "test system": "SCID mouse, PC-3 xenografts, liver", "conditions": "2 h", "quantity": "tissue uptake", "value": "3.8 ± 2.39 %ID/g"}
{"Structure (SMILES)": "CN[C@](C)(C[18F])C(=O)O", "test system": "SCID mouse U87 xenograft, lung", "conditions": "15 min, post injection", "quantity": "tissue uptake", "value": "3.7 ± 0.4 %ID/g"}
